Experimental data collected from several papers.
A part holds a random share of what one study measured.

Study 1 — technique: RNA Bind-n-Seq; form: RNA; medium: in vitro; concentration: 365 nM; reference: no-protein control; reading: higher = stronger binding
Target: RNA binding protein fox-1 homolog 2, RRM domain, GST-SBP tag (RBFOX2, Homo sapiens, UniProt O43251-10, residues 100-194)
Notes: natural RNA segment, single round, ends assumed
Residues (chain): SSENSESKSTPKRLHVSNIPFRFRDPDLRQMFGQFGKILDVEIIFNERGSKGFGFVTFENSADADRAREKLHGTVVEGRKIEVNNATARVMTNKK
Sequence	RBNS enrichment (R)
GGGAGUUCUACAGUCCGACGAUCCUGGAAAGAACUGAGGCCAGACGAUUUCUGUGUUUGUCUCUUUGGCUUUUGUGUUAUAAGGAGGCAGGCCUUUCGAGGCCAUCUUACAUUGUUUGGUUCCAGAAAACCAAUGGAAUUCUCGGGUGCCAA	0.309
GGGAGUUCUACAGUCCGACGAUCCCAGGCUGGACAAAGCAGGGGGCUACUUCUCCCUUCCCUCGGUUCCAGUCUUCCCUUUAAAAGCCUGUGGCAUUUUUCCUCCUUCUCCCUAACUUUAGAAAUGUUGUACUUGGAAUUCUCGGGUGCCAA	0.694
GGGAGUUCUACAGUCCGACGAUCCAACCUUUGUGGGUCGCCUAAGAGCAUCGCAAACCAGAUAUUUACAUUAUGAUUCAUAACAGUGACAAUCACAGUUAUGAGGUAGAAAGGAAAGGGAUUUUAUGGUUGGGUGGAAUUCUCGGGUGCCAA	0.429
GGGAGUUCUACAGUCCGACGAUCAAGGCUCUUGUUGCUGUAAUUUAGAGAGGAGCUCUGUGUCCUUGGCCAGUCAAGUAAGUUCCUGGAUCUUUGGCAAAGCCAGAGGAAGAAAGGAGCUACCUGCCCUUUCCUGGAAUUCUCGGGUGCCAA	0.314
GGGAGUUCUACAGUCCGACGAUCCUUGCACUUGUACAUAACUAUACUGUAGUGUCCAGAAUGUUCAGACAUUCAGGGUGUACAUAAACAGAAGAGUAUCAUAAUGUAUUUUUAUUAAACACUAACAUCUGAGUUGGAAUUCUCGGGUGCCAA	0.541
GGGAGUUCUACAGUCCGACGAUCAUUUUUGUUUUCCUAAAGAAAAUGCCUAAUAUAGAGAAAACAAUACAUAUCUUUACAGCUUAUUUGAAUGUGAGAAUUGGAAUAUUACCUGUAUAUAUCAGAUGAGCAGUUGGAAUUCUCGGGUGCCAA	0.908
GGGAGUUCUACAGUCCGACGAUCUUCUGCUGGGCAGAACACAUGGGUUAAAUCUGUGUAGAGAGUUUUCCUCAUCCUCCAUCCACAAGUGUCCUUCCAAGCAAGGUCCCCCUCUAGACAGUAGACAAGGACCCUGGAAUUCUCGGGUGCCAA	0.222
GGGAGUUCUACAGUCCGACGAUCUGACUGUGUUUUAAAAUUCUCUUUCUAAACACAGAGUGUUGGGCCUGGUUUGUUUCUGACAAAGUUACAGUCCUGGGCCUGUAAUGAAUGUCGGCGGCGCUGGGGUUGCAUGGAAUUCUCGGGUGCCAA	12.2

Study 2 — technique: RNA Bind-n-Seq; form: RNA; medium: in vitro; concentration: 1 µM; notes: whole 134-nt RNA, ends assumed; together with: 150 mM KCl; reference: input library; reading: higher = stronger binding
Target: Ras GTPase-activating protein-binding protein 1, RRM domain (G3BP1, Homo sapiens, UniProt Q13283)
Sequence of UniProt Q13283 (whole entry, looked up): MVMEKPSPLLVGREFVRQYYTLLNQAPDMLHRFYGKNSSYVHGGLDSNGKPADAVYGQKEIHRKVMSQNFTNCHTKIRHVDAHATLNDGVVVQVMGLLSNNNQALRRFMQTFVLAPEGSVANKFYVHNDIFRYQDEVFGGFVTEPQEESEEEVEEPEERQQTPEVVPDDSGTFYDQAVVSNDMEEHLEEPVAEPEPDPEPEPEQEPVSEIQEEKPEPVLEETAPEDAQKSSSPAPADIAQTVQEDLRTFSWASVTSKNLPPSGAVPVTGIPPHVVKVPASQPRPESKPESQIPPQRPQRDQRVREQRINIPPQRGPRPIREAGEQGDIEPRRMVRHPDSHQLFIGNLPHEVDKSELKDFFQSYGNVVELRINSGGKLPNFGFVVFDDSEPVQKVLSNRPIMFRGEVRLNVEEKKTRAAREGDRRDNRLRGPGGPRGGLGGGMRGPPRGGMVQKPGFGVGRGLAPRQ
Sequence	log2 enrichment
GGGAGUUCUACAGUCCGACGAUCUGGGAGGUGGAUUUUGUUUAUUUUUUUAGCUCAUUUCCAUGGGUGGGAAUUUUUUUUUAAUAUGUGUCAUGAAUAAAGUUGUUUUUGAAAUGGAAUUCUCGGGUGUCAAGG	1.59
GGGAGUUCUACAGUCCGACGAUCCCUCAAGUCCUGUGCUACACAUCGUAUGUACCGAAUCGGAGGUUUGGAAAGGAAAGUAUUAUGUUACGCCGUUCGGAUCUGCACUUCCAGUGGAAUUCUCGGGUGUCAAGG	-0.247
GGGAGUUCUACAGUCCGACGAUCUCCUGUGCUACACAUCGUAUGUACCGAAUCGGGGAAAAAAGGAAAAAAGGAAAAAAGGGAAAGUAUUAUGUUACGCCGUUCGGAUCUGCAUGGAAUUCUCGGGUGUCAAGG	0.0758
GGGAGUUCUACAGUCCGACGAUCCACAGACAACACGCACCCACACAGACACAGAGGGAAGGGGUUGGGAUGGGGACAGGGUGCACUGCAGGGCGGGGUAGGACCCCAGCCCCUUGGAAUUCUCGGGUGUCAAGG	-0.0537
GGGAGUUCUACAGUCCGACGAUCUUUCAGGGGAGCUCUUUGCUCAGGCCCCGGUGGAUCAGUUUCCUGGCACAGCUGUGGAGAGUGUGACGGAUUCCAGCAGGUACUUCGUGAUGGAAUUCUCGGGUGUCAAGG	-0.382
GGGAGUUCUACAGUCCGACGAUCUCAAGUCCUGUGCUACACAUCGUAUGUACCGAAUCGGAAAGGAAAAAGGUUUGGAAAGUAUUAUGUUACGCCGUUCGGAUCUGCACUUCCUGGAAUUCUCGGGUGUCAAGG	-0.123
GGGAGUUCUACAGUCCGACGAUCUGGGAGGUGGAUUUUGUUUAUUUUUUUCGCUCAUUUCCAGGGGUGGGAAUUUUUUUUUAAUAUGUGUCAUGAAUAAAGUUGUUUUUGAAAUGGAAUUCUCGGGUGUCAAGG	1.72
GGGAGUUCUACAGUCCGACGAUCCCUCAAGUCCUGUGCUACACAUCGUAUGUACCGAAUCGGGUGGGUGGGAGGGAAAGUAUUAUGUUACGCCGUUCGGAUCUGCACUUCCAGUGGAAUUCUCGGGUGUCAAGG	0.754
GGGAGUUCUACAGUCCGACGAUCAAGUCCUGUGCUACACAUCGUAUGUACCGAAUCGGGGUGGGGAGGGGUUUUUGGGGAAAGUAUUAUGUUACGCCGUUCGGAUCUGCACUUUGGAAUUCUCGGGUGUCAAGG	0.813
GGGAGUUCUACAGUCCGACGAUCCCUGUGCUACACAUCGUAUGUACCGAAUCAAAUUUUUUUAAAUUUUUAAACCCCCCCAAAAAAGUAUUAUGUUACGCCGUUCGGAUCUGCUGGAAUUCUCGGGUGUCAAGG	-0.987
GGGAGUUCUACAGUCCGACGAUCUGGCCCUGGUGGAAUGCGGGGAGGAAGAGGUGGCCUCAUGGAUCGUGGUGGUCCCGGUGGAAUGUUCAGAGGUGGCCGUGGUGGAGACAGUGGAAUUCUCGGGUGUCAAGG	0.834

Study 3 — technique: universal PBM; form: double-stranded DNA, one strand shown; medium: in vitro; concentration: not given; reading: higher = stronger binding
Target: Sal-like protein 4, full length isoform B (SALL4, Homo sapiens, UniProt Q9UJQ4-2, residues 1-616)
Notes: 8-mer, flanks averaged, mean of replicates
Sequence	E-score
CGCCATAG	-0.07
GCAGATCC	-0.11
CATTCCAG	-0.0338
CCCTCAGC	-0.228
CCCTTAGA	-0.0552
ATGAAAAG	0.119
CCCGATGC	-0.355
ACACAATC	0.0685
GCATCTCC	-0.238
CAGGCTTA	-0.148
CAAGGCCA	-0.00749
ATCTCAAA	0.187
AGACCTAG	-0.101
AACTGGTC	-0.182

Mixed results
Molecule	target	test	system	conditions	how to read	quantity	result
PhoQ, residues 284 288 289 292 302 303 ASSHFY	PhoP, residues 12 14 15 18 19 LHATL (Escherichia coli, UniProt P23836)	Sort-seq, refers to: YFP reporter	E. coli	PhoQ-PhoP variant library, together with: 10 µM Mg2+	reference: high Mg2+ state, higher = stronger signaling	fold induction	12.7
